Measured values gathered from unrelated publications.
Each line is one published result; not all experiments were run side by side.
Chain of UniProt P11712 (whole entry, looked up): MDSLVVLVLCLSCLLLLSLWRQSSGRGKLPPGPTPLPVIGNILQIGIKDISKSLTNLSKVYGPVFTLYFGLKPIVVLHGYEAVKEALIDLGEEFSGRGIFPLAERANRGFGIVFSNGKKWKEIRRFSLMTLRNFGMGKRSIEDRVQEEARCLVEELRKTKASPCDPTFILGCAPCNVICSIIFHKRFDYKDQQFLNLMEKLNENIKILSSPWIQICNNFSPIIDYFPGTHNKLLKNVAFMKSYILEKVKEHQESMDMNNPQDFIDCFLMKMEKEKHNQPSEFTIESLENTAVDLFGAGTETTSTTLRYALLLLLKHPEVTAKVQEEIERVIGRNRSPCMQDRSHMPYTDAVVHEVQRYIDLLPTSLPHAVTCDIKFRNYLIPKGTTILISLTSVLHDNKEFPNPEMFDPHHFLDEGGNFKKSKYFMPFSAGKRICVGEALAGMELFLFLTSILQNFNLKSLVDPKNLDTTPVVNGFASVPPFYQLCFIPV

SMILES | target or system | assay | system | conditions | scale | measurement | result
CC(C)CC(=O)OC[C@H]1O[C@@](C#N)(c2ccc3c(N)ncnn23)[C@H](O)[C@@H]1O | Cytochrome P450 2C9 (CYP2C9, Homo sapiens, UniProt P11712) | metabolic stability | recombinant enzyme | 1 µM | – | intrinsic clearance | 0 µL/min/pmol
CC[C@@H]1C(=O)N(C)c2cnc(Nc3ccc(C(=O)N[C@H]4CC[C@H](N5CCN(CC6CC6)CC5)CC4)cc3OC)nc2N1C(C)C | African green monkey cells | – | – | 5 days | – | CC50 | 0.234 µM
O=C(c1ccc(F)c(F)c1Nc1ccc(I)cc1F)N1CC(O)([C@@H]2CCCCN2)C1 | – | – | patients aged sample A to sample B years | oral, dose not given | – | AE leading dose modification | 29%
CN1[C@H]2CC[C@@H]1[C@@H](C(=O)O)[C@@H](OC(=O)c1ccccc1)C2 | – | – | rat, whole blood | 1000 nM, 4 h, room temperature, bench-top storage | – | stability bias | 3.72%
O=c1ccc2ccccc2o1 | HepaRG 3D spheroids | mitochondrial mass | – | 168 h, high-content imaging | – | point of departure | 616 µM
CC(=O)O[C@H]1C=C[C@H]2[C@H]3Cc4ccc(O)c5c4[C@@]2(CCN3C)[C@H]1O5 | – | – | rat, whole blood | 1000 nM, 4 freeze-thaw cycles | – | stability bias | 3.95%
CN1[C@@H]2CC[C@H]1C[C@@H](OC1c3ccccc3CCc3ccccc31)C2 | African green monkey cells | – | – | 5 days | – | CC50 | 13.5 µM
CC(=O)Oc1ccc2c3c1O[C@H]1[C@@H](OC(C)=O)C=C[C@H]4[C@@H](C2)N(C)CC[C@@]341 | – | – | rat, whole blood | 10 nM, 4 freeze-thaw cycles | – | stability bias | -4.17%
COc1ccc2c(c1)CCC(c1ccccc1)=C2c1ccc(OCCN2CCCC2)cc1 | African green monkey cells | – | – | 5 days | – | CC50 | 3.85 µM
CN1CC[C@]23c4c5ccc(O[C@@H]6O[C@H](C(=O)O)[C@@H](O)[C@H](O)[C@H]6O)c4O[C@H]2[C@@H](O)C=C[C@H]3[C@H]1C5 | – | – | rat whole blood | 500 nM, 4 months, -80 °C | – | stability bias | 5.22%
O=C1c2c(O)c(=O)ccn2N([C@@H]2c3ccccc3SCc3c2ccc(F)c3F)[C@@H]2COCCN12 | – | – | BALB/c mouse | subcutaneous, 4 mg/kg q24h | – | Cmax | 167 ng/mL
Cc1cc(C(=O)NC(C)(C)COc2cccc3c2C(N)=NS(=O)(=O)N3)cc(C)n1 | Salmonella typhimurium | Ames test, initial | TA1535 | 50.0 µg/plate | relative to: solvent control | revertant ratio | 1.4
COc1nc2ccc(Br)cc2cc1[C@@H](c1ccccc1)[C@@](O)(CCN(C)C)c1cccc2ccccc12 | African green monkey cells | – | – | 5 days | – | CC50 | 13.7 µM
COC(=O)[C@H]1[C@@H](OC(=O)c2ccccc2)C[C@@H]2CC[C@H]1N2C | – | – | rat, whole blood | 10 nM, 4 months, -80 °C, long-term storage | – | stability bias | -16.2%
CN(c1nc2ccccc2s1)C1CCN(CC(O)COc2ccc(F)cc2)CC1 (stereo not drawn) | African green monkey cells | – | – | 5 days | – | CC50 | 15.3 µM
CN1CC[C@]23c4c5ccc(O)c4O[C@H]2[C@@H](O[C@@H]2O[C@H](C(=O)O)[C@@H](O)[C@H](O)[C@H]2O)C=C[C@H]3[C@H]1C5 | – | – | rat whole blood | 500 nM, 4 freeze-thaw cycles | – | stability bias | -2.58%
CC(C)(C)NC[C@H](O)COc1ccccc1C1CCCC1 | African green monkey cells | – | – | 5 days | – | CC50 | 29.5 µM
COc1cccc(-c2n[nH]c(SCc3ccccn3)n2)c1OC | Salmonella typhimurium | Ames test, plate incorporation | TA1537 | 0.063 mg/plate, without S9 | – | revertant colonies per plate | 10
